Assay results gathered from unrelated publications.
Compare with care: the assays were run in different laboratories.
B1: ARHGEF40 Y1214A/L1217E/L1218E (Homo sapiens, UniProt Q8TER5); sequence looked up; chain MEPEPVEDCVQSTLAALYPPFEATAPTLLGQVFQVVERTYREDALRYTLDFLVPAKHLLAKVQQEACAQYSGFLFFHEGWPLCLHEQVVVQLAALPWQLLRPGDFYLQVVPSAAQAPRLALKCLAPGGGRVQEVPVPNEACAYLFTPEWLQGINKDRPTGRLSTCLLSAPSGIQRLPWAELICPRFVHKEGLMVGHQPSTLPPELPSGPPGLPSPPLPEEALGTRSPGDGHNAPVEGPEGEYVELLEVTLPVRGSPTDAEGSPGLSRVRTVPTRKGAGGKGRHRRHRAWMHQKGLGPRGQDGARPPGEGSSTGASPESPPGAEAVPEAAVLEVSEPPAEAVGEASGSCPLRPGELRGGGGGGQGAEGPPGTPRRTGKGNRRKKRAAGRGALSRGGDSAPLSPGDKEDASHQEALGNLPSPSEHKLPECHLVKEEYEGSGKPESEPKELKTAGEKEPQLSEACGPTEEGAGERELEGPGLLCMAGHTGPEGPLSDTPTPPLETVQEGKGDNIPEEALAVSVSDHPDVAWDLMASGFLILTGGVDQSGRALLTITPPCPPEEPPPSRDTLNTTLHYLHSLLRPDLQTLGLSVLLDLRQAPPLPPALIPALSQLQDSGDPPLVQRLLILIHDDLPTELCGFQGAEVLSENDLKRVAKPEELQWELGGHRDPSPSHWVEIHQEVVRLCRLCQGVLGSVRQAIEELEGAAEPEEEEAVGMPKPLQKVLADPRLTALQRDGGAILMRLRSTPSSKLEGQGPATLYQEVDEAIHQLVRLSNLHVQQQEQRQCLRRLQQVLQWLSGPGEEQLASFAMPGDTLSALQETELRFRAFSAEVQERLAQAREALALEENATSQKVLDIFEQRLEQVESGLHRALRLQRFFQQAHEWVDEGFARLAGAGPGREAVLAALALRRAPEPSAGTFQEMRALALDLGSPAALREWGRCQARCQELERRIQQHVGEEASPRGYRRRRADGASSGGAQWGPRSPSPSLSSLLLPSSPGPRPAPSHCSLAPCGEDYEEEGPELAPEAEGRPPRAVLIRGLEVTSTEVVDRTCSPREHVLLGRARGPDGPWGVGTPRMERKRSISAQQRLVSELIACEQDYVATLSEPVPPPGPELTPELRGTWAAALSARERLRSFHRTHFLRELQGCATHPLRIGACFLRHGDQFSLYAQYVKHRHKLENGLAALSPLSKGSMEAGPYLPRALQQPLEQLTRAGREEEELLREAGPELSSECRALGAAVQLLREQEARGRDLLAVEAVRGCEIDLKEQGQLLHRDPFTVICGRKKCLRHVFLFEHLLLFSKLKGPEGGSEMFVYKQAFKTADMGLTENIGDSGLCFELWFRRRRAREAYTLQATSPEIKLKWTSSIAQLLWRQAAHNKELRVQQMVSMGIGNKPFLDIKALGERTLSALLTGRAARTRASVAVSSFEHAGPSLPGLSPGACSLPARVEEEAWDLDVKQISLAPETLDSSGDVSPGPRNSPSLQPPHPGSSTPTLASRGILGLSRQSHARALSDPTTPL
B2: fliM 1-229 (Thermotoga maritima, UniProt Q9WZE6); sequence looked up; chain MSDVLSQEEINQLIEALMKGELKEEDLLKEEEEKKVKPYDFKRPSKFSKEQLRTFQMIHENFGRALSTYLSGRLRTFVDVEISIDQLTYEEFIRSVMIPSFIVIFTGDVFEGSAIFEMRLDLFYTMLDIIMGGPGENPPNRPPTEIETSIMRKEVTNMLTLLAQAWSDFQYFIPSIENVETNPQFVQIVPPNEIVLLVTASVSWGEFTSFINVCWPFSLLEPLLEKLSD
B3: VPS71 (Saccharomyces cerevisiae, UniProt Q03433); sequence looked up; chain MKALVEEIDKKTYNPDIYFTSLDPQARRYTSKKINKQGTISTSRPVKRINYSLADLEARLYTSRSEGDGNSISRQDDRNSKNSHSFEERYTQQEILQSDRRFMELNTENFSDLPNVPTLLSDLTGVPRDRIESTTKPISQTSDGLSALMGGSSFVKEHSKYGHGWVLKPETLREIQLSYKSTKLPKPKRKNTNRIVALKKVLSSKRNLHSFLDSALLNLMDKNVIYHNVYNKRYFKVLPLITTCSICGGYDSISSCVNCGNKICSVSCFKLHNETRCRNR
B4: TTC7B (Homo sapiens, UniProt Q86TV6); chain MATKKAGSRLETEIERCRSECQWERIPELVKQLSAKLIANDDMAELLLGESKLEQYLKEHPLRQGASPRGPKPQLTEVRKHLTAALDRGNLKSEFLQESNLIMAKLNYVEGDYKEALNIYARVGLDDLPLTAVPPYRLRVIAEAYATKGLCLEKLPISSSTSNLHVDREQDVITCYEKAGDIALLYLQEIERVILSNIQNRSPKPGPAPHDQELGFFLETGLQRAHVLYFKNGNLTRGVGRFRELLRAVETRTTQNLRMTIARQLAEILLRGMCEQSYWNPLEDPPCQSPLDDPLRKGANTKTYTLTRRARVYSGENIFCPQENTEEALLLLLISESMANRDAVLSRIPEHKSDRLISLQSASVVYDLLTIALGRRGQYEMLSECLERAMKFAFEEFHLWYQFALSLMAAGKSARAVKVLKECIRLKPDDATIPLLAAKLCMGSLHWLEEAEKFAKTVVDVGEKTSEFKAKGYLALGLTYSLQATDASLRGMQEVLQRKALLAFQRAHSLSPTDHQAAFYLALQLAISRQIPEALGYVRQALQLQGDDANSLHLLALLLSAQKHYHDALNIIDMALSEYPENFILLFSKVKLQSLCRGPDEALLTCKHMLQIWKSCYNLTNPSDSGRGSSLLDRTIADRRQLNTITLPDFSDPETGSVHATSVAASRVEQALSEVASSLQSSAPKQGPLHPWMTLAQIWLHAAEVYIGIGKPAEATACTQEAANLFPMSHNVLYMRGQIAELRGSMDEARRWYEEALAISPTHVKSMQRLALILHQLGRYSLAEKILRDAVQVNSTAHEVWNGLGEVLQAQGNDAAATECFLTALELEASSPAVPFTIIPRVL
B5: PduK (Salmonella enterica, UniProt Q9XDN6); sequence looked up; chain MANKEHRVKQSLGLLEVCGLALAISCADIMAKSASITLLALEKTNGSGWMVIKITGDVASVQAAITTGAHFAEQWNGLVAHKVIARPGEGILLAETPSPSVIEPEPEASEIADVVSEAPAEEAPQESELVSCNLCLDPKCPRQKGEPRTLCIHSGKRGEA
B6: POMP (Homo sapiens, UniProt Q9Y244); chain MNARGLGSELKDSIPVTELSASGPFESHDLLRKGFSCVKNELLPSHPLELSEKNFQLNQDKMNFSTLRNIQGLFAPLKLQMEFKAVQQVQRLPFLSSSNLSLDVLRGNDETIGFEDILNDPSQSEVMGEPHLMVEYKLGLL
B7: PIP5K1C (Homo sapiens, UniProt O60331-3); sequence looked up; chain MELEVPDEAESAEAGAVPSEAAWAAESGAAAGLAQKKAAPTEVLSMTAQPGPGHGKKLGHRGVDASGETTYKKTTSSTLKGAIQLGIGYTVGHLSSKPERDVLMQDFYVVESIFFPSEGSNLTPAHHFQDFRFKTYAPVAFRYFRELFGIRPDDYLYSLCNEPLIELSNPGASGSLFYVTSDDEFIIKTVMHKEAEFLQKLLPGYYMNLNQNPRTLLPKFYGLYCVQSGGKNIRVVVMNNILPRVVKMHLKFDLKGSTYKRRASKKEKEKSFPTYKDLDFMQDMPEGLLLDADTFSALVKTLQRDCLVLESFKIMDYSLLLGVHNIDQHERERQAQGAQSTSDEKRPVGQKALYSTAMESIQGGAARGEAIESDDTMGGIPAVNGRGERLLLHIGIIDILQSYRFIKKLEHTWKALVHDGDTVSVHRPSFYAERFFKFMSNTVFRKNSSLKSSPSKKGRGGALLAVKPLGPTAAFSASQIPSEREEAQYDLRGARSYPTLEDEGRPDLLPCTPPSFEEATTASIATTLSSTSLSIPERSPSETSEQPRYRRRTQSSGQDGRPQEEPPAEEDLQQITVQVEPACSVEIVVPKEEDAGVEASPAGASAAVEVETASQASDEEGAPASQASDEEDAPATDIYFFTDGRYWIYSPRHRRLRAVTLSASGTVSDRSRPPWGEGAVPLGQQGAAGPRPEAQCLTSVVFQKGFG
B8: MEC3 (Saccharomyces cerevisiae, UniProt Q02574); sequence looked up; chain MKLKLIVNGCEAPDDYKLLRTTINTVASLRKTAILRFNSERLTIISTPKSSLNSSNNGTILRGDTGQLWCTIPHDVFRLYTVISARELNTITMECNCDSLLSVFKRYDRVMNQGSSSNMTIKLQSMPEWNTNNGTLSGGTAGGVDTTSKPNPICALGITFEEIVHTSGPNDAIVMNGGVDEHNGLPTTVGTGNLLASNKVIMHSFKVPVKLLFRAQDTRIQEPMINYIQLMMYKLPPISGEFGSAFHGFIRRVERYSNVNHIHLMGVKKKEHGNEGDDVELKIIVNELDWHLEICWNGPLDSVIQRQEGLTDNPSQNQHIDTDGRQEEGSLPIIEADKPMSSLYTNTRDREMEENIRYDEDLLRIEDSSIADTRGNIYTADTSGDTEFNDISVMVEKAEQESSSTHEVIIRCKDWKVCSKLYAAFEEVVLAISHDESCVFHCSLDRGSLEDSEDVEKPRERGQIIYYIARSKGL
B9: PAN1 543-850 (Saccharomyces cerevisiae, UniProt P32521); sequence looked up; chain LTGLQPQPTGFLPPSNFSATMPLTAQKTGFGNNEIYTKSNFNNNLIDNSSQDKISTEEKSLFYKIFETFDTQNKGLLDSPTAVEIFRKSGLNRADLEQIWNLCDINNTGQLNKQEFALGMHLVYGKLNGKPIPNVLPSSLIPSSTKLLDNLKNQLKTEPTTTKEKPSFGKIDALSYKNNDDDVLPNYRNRRKVYSAKNEEQSSFSSPSAKSVNHSSSTLQTDDISVDKTVEKKTAKPKYAGFSREINLKNIASLENEIKNISNPENCYDSSIPSDLTSRFDAIIAKLPNLFNEISTIDNEITNAKIQL
B10: AEBP2 407-503 (Homo sapiens, UniProt Q6ZN18-2); sequence looked up; chain RHRAICFNLSAHIESLGKGHSVVFHSTVIAKRKEDSGKIKLLLHWMPEDILPDVWVNESERHQLKTKVVHLSKLPKDTALLLDPNIYRTMPQKRLKR
B11: NOTCH2 221-530 (Homo sapiens, UniProt Q04721); sequence looked up; chain LYVPCAPSPCVNGGTCRQTGDFTFECNCLPGFEGSTCERNIDDCPNHRCQNGGVCVDGVNTYNCRCPPQWTGQFCTEDVDECLLQPNACQNGGTCANRNGGYGCVCVNGWSGDDCSENIDDCAFASCTPGSTCIDRVASFSCMCPEGKAGLLCHLDDACISNPCHKGALCDTNPLNGQYICTCPQGYKGADCTEDVDECAMANSNPCEHAGKCVNTDGAFHCECLKGYAGPRCEMDINECHSDPCQNDATCLDKIGGFTCLCMPGFKGVHCELEINECQSNPCVNNGQCVDKVNRFQCLCPPGFTGPVCQ
B12: rga8 1-420 K62A/K64A/K65A/K141A/K142A/K144A (Schizosaccharomyces pombe, UniProt Q09697); sequence looked up; chain MISSFSNGFWSKDYATGVKKLFDCLDNGVEENEQVKNLLKLYKEANEEFGEKLQEITKECLAGAAPENTEDGATSNKAFEGLRSEIANQGKQHIRIAKDLETLIIAPFSKMSIDHSQKLQTSQQVLTNQIKSYEKKYYTLAATASAYYNKCRNLEDYEEESKESNETTSEAITDLTTVSSPQQQSLLENDDDLIQLGFMEFRPEELKEVLAQVLQEIPLQDYRVPILGTYPNTCSGNIIVSWLQENLPVPTLVAAEAFGQDLIAQGFLRHMGVGGSFVNSTNFHYQWKDKAFQFAGLNSVDSLVENAKALPLVGEYLSDYISHRKLYSSETQSQRLKREVLDANKIYSESVVDLDKCRTLVEETIADHLQFLQKCETDRVLYYKDFFMDLSTIISNFLPSMKLLADQIVVYQEIIQPESD
Sequence of UniProt P42224 (whole entry, looked up): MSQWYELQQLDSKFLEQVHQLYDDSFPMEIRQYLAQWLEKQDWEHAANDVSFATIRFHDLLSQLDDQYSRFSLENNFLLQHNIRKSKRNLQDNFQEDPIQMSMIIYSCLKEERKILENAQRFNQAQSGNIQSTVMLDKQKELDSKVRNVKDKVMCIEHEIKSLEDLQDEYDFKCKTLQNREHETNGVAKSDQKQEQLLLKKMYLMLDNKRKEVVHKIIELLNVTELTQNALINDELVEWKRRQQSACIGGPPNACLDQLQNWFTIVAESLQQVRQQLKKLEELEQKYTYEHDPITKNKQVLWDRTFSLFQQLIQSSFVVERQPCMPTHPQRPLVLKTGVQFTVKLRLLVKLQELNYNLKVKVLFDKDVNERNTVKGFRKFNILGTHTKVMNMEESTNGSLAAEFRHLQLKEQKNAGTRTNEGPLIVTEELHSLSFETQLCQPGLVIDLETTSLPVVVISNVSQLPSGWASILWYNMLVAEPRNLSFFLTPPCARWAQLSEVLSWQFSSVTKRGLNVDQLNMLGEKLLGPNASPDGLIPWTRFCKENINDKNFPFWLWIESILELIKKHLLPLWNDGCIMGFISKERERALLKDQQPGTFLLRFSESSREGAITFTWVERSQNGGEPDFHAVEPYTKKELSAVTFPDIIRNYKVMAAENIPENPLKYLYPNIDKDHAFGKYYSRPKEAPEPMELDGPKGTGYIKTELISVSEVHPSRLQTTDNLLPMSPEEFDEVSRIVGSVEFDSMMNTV
Sequence of UniProt Q12509 (whole entry, looked up): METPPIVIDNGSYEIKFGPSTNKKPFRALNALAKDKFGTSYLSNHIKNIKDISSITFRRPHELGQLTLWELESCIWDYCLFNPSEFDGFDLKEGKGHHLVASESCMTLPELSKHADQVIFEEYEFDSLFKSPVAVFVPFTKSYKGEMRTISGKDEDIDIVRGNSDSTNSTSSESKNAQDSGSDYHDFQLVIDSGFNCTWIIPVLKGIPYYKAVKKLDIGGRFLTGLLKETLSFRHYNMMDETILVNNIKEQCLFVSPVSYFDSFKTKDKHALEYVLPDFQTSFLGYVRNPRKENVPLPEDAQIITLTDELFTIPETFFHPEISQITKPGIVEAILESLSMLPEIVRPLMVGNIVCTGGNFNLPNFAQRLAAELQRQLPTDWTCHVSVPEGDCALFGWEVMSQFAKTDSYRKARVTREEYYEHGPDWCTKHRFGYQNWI
Sequence of UniProt O15085 (whole entry, unmodified, looked up): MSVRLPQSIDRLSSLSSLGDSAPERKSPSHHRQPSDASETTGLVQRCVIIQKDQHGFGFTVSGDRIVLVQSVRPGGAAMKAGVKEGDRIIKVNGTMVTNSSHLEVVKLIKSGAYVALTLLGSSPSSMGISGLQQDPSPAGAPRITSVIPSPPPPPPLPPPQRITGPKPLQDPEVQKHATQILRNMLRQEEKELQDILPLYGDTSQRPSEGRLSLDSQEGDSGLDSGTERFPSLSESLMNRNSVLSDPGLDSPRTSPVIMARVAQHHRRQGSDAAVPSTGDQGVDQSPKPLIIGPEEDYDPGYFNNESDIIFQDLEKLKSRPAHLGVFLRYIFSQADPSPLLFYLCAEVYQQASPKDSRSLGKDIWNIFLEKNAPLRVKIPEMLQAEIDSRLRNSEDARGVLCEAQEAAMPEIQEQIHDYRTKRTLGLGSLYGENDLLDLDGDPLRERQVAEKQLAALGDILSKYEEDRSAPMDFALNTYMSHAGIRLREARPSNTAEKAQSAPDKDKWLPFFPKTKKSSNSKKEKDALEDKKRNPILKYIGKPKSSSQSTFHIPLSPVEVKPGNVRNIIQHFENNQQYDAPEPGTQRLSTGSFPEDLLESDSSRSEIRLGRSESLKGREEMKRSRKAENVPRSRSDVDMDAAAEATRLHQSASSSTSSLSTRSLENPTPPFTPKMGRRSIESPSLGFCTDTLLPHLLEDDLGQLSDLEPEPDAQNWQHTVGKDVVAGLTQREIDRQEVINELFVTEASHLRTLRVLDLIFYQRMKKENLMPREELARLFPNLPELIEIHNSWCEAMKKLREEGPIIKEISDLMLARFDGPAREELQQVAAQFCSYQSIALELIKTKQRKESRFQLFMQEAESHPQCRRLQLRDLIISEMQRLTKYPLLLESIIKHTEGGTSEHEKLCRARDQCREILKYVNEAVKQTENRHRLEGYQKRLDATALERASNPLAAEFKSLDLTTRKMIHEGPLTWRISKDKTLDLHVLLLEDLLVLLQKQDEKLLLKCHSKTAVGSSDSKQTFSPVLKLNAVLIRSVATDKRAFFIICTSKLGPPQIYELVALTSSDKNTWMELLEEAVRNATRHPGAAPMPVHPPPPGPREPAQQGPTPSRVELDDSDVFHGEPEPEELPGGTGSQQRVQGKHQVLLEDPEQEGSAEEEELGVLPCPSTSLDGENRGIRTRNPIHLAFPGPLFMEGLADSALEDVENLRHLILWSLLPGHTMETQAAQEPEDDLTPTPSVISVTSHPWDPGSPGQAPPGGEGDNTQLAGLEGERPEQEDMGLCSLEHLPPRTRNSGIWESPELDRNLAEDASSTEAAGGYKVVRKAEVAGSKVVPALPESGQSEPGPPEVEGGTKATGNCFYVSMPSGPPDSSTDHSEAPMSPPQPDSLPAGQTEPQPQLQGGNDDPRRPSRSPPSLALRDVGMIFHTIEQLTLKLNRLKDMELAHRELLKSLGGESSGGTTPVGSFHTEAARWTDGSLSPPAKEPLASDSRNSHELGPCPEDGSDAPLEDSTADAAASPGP
Sequence of UniProt Q9NR61 (whole entry, unmodified, looked up): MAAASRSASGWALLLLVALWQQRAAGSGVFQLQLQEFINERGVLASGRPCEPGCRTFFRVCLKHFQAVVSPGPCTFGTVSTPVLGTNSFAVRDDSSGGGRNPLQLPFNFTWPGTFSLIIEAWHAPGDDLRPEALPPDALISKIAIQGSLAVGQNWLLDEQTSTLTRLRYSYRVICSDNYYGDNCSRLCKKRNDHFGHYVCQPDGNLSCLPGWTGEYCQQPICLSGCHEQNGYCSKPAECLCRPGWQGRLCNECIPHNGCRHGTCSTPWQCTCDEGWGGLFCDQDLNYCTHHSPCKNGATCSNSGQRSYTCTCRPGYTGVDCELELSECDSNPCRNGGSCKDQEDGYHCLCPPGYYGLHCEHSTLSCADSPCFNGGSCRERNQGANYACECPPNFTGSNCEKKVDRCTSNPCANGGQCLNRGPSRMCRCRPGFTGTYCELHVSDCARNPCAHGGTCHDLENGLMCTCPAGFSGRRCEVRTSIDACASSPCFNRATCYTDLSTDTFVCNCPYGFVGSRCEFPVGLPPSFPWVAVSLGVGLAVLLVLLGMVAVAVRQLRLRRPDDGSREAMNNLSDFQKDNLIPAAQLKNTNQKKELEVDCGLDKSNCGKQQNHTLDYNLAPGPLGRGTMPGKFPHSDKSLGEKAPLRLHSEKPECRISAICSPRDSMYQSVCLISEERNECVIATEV
Sequence of UniProt P25787 (whole entry, looked up): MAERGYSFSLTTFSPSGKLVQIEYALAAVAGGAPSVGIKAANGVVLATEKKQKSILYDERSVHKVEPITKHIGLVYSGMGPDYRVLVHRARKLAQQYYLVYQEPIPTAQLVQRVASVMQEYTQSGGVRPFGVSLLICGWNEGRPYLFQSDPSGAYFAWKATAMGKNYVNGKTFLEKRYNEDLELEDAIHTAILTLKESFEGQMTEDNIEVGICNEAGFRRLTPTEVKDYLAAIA
Sequence of UniProt Q9WY63 (whole entry, looked up): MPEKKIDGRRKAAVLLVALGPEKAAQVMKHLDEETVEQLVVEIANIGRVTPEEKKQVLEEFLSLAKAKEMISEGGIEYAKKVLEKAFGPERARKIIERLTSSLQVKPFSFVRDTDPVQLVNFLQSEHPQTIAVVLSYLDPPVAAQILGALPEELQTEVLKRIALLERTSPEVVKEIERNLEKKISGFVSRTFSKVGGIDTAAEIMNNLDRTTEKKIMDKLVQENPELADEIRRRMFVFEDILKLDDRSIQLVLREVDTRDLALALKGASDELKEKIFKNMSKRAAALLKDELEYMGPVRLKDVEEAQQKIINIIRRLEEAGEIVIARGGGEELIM
Sequence of UniProt Q9XDM8 (whole entry, looked up): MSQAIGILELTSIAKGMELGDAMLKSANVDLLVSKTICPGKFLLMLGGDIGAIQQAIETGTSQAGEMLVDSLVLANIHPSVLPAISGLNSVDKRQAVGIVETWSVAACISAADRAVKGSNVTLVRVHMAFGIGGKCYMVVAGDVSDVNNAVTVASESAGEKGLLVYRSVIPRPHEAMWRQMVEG
Sequence of UniProt Q08949 (whole entry, looked up): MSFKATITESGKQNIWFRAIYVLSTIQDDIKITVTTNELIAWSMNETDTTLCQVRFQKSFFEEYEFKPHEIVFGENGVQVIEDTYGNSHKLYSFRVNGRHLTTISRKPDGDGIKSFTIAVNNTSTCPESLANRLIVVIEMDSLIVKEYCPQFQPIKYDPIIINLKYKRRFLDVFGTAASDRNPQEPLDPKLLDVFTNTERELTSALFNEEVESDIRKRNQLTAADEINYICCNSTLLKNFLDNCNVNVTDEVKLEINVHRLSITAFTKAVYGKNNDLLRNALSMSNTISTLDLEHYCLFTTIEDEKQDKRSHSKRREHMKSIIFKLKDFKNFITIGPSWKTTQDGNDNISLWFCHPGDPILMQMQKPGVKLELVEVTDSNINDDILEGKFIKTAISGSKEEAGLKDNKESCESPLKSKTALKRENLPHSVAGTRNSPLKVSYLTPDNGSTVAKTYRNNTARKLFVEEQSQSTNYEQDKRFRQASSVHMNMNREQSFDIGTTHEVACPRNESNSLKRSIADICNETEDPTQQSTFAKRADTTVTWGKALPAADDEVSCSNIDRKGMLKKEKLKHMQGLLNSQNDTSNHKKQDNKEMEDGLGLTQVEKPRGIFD

| Sequence | partner | technique | matrix | tested at | setting | binding |
| --- | --- | --- | --- | --- | --- | --- |
| B1 (ARHGEF40 Y1214A/L1217E/L1218E) | ARHGEF11 (Homo sapiens, UniProt O15085) | co-IP |  |  |  | binds |
| B2 (fliM 1-229) | fliG 104-334 (Thermotoga maritima, UniProt Q9WY63) | NMR titration |  |  |  | binds |
| B3 (VPS71) | ARP6 (Saccharomyces cerevisiae, UniProt Q12509) | cryo-EM |  |  |  | binds |
| B4 (TTC7B) | PI4KA (Homo sapiens, UniProt P42356) | cryo-EM |  |  |  | binds |
| B5 (PduK) | PduT (Salmonella enterica Typhimurium LT2, UniProt Q9XDM8) | cross-linking |  |  |  | binds |
| B6 (POMP) | PSMA2 (Homo sapiens, UniProt P25787) | cryo-EM |  |  |  | binds |
| B7 (PIP5K1C) | STAT1 (Homo sapiens, UniProt P42224) | solid-phase binding |  |  |  | binds |
| B8 (MEC3) | DDC1 1-612 (Saccharomyces cerevisiae, UniProt Q08949) | cryo-EM |  |  |  | binds |
| B9 (PAN1 543-850) | PAN1 231-1480 (Saccharomyces cerevisiae, UniProt P32521) | pull-down |  |  |  | binds |
| B10 (AEBP2 407-503) | SUZ12/RBBP4 SUZ12 76-545 (Homo sapiens) | pull-down |  |  | competition | binds |
| B11 (NOTCH2 221-530) | DLL4 27-400 N257P/T271L/F280Y/S301R/Q305P (Homo sapiens, UniProt Q9NR61) | SPR |  |  |  | binds |
| B12 | rga8 1-420 (Schizosaccharomyces pombe, UniProt Q09697) | pull-down |  |  |  | binds |
| RQIVDAQAVCTRCKESADFWCFECEQLLCAKCFEAHQWFLKHEARPLAE (PML 120-168 (Homo sapiens, UniProt P29590); sequence looked up) | UBE2I (Homo sapiens, UniProt P63279) | SEC | not stated | 400 µM |  | binds |
